Results of several laboratories.
± gives the spread as reported.
Sequence of UniProt O60894 (whole entry, looked up): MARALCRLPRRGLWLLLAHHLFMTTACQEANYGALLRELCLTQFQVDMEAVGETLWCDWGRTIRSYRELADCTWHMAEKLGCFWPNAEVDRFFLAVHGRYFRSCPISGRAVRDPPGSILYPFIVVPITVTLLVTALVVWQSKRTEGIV
Sequence of UniProt Q16602 (whole entry, looked up): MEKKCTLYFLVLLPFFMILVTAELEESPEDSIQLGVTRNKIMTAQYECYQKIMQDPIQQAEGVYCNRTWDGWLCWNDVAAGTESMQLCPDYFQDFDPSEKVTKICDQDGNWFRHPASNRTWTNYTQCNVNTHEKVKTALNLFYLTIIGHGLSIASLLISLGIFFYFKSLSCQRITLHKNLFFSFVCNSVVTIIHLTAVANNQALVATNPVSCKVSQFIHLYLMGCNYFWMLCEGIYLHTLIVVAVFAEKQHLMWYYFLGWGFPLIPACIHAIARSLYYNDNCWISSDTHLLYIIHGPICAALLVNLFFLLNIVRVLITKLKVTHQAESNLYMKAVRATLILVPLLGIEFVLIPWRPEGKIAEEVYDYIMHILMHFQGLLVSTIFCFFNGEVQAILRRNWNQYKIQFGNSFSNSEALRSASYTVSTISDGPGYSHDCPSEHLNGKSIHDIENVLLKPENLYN

Compound | tested on | assay | test system | conditions | measurement | value
Nc1ccn(C[C@@H](CO)OCP(=O)(O)O)c(=O)n1 | herpes simplex virus 2 | viral cytopathic effect | HEL, G |  | EC50 | 1000 nM
COCC(=O)N1CCC[C@H](C(=O)NCc2nc(-c3ccccc3)cs2)C1 | Plasmodium falciparum |  | Dd2 β5 S27F CRISPR-edited |  | EC50 | > 50000 nM
O=c1[nH]c(=O)n([C@H]2C[C@H](O)[C@@H](CO)O2)cc1/C=C/Br | varicella-zoster virus | viral replication | HEL, Oka TK+ |  | EC50 | 270 nM
O=c1[nH]c(=O)n([C@H]2C[C@H](O)[C@@H](CO)O2)cc1/C=C/Br | varicella-zoster virus | plaque formation | HEL, Oka, TK+ |  | EC50 | 42 nM
COC(=O)N[C@H](C(=O)N1CCC[C@H]1c1ncc(-c2ccc(-c3ccc(-c4cnc([C@@H]5CCCN5C(=O)[C@@H](NC(=O)OC)C(C)C)[nH]4)cc3)cc2)[nH]1)C(C)C | hepatitis C virus | viral replication, transient replicon | genotype 1a NS5A WT |  | EC50 | 0.0049 nM
Nc1ccn(C[C@@H](CO)OCP(=O)(O)O)c(=O)n1 | human alphaherpesvirus 1 | virus-induced cytopathogenicity | HEL, KOS TK- acyclovir-resistant |  | EC50 | 2000 nM
COc1cc(Nc2ncc(F)c(Nc3ccc4c(n3)NC(=O)C(C)(C)O4)n2)cc(OC)c1OC | Calcitonin-gene-related peptide receptor, CALCRL/RAMP1 (Homo sapiens, UniProt O60894+Q16602) |  |  |  | IC50 | > 10000 nM
Nc1nc2c(ncn2COCCO)c(=O)[nH]1 | herpes simplex virus 2 | viral cytopathic effect | HEL, G |  | EC50 | 80 nM
CCC(C(=O)Nc1sc(C(N)=O)c(C)c1C(=O)OC)c1ccccc1 (stereo not shown) | human alphaherpesvirus 1 | viral replication | Vero | 53 h | EC50 | > 100000 nM
CC[C@H](C)[C@H](NC(=O)[C@H](CCCNC(=N)N)NC(=O)[C@H](CC(N)=O)NC(=O)[C@H](Cc1ccccc1)NC(=O)[C@@H](NC(=O)[C@@H](N)Cc1ccc(O)cc1)[C@@H](C)O)C(=O)N[C@@H](Cc1c[nH]cn1)C(=O)N[C@@H](CCC(=O)O)C(=O)N[C@@H](Cc1ccccc1)C(=O)O | HLA class I histocompatibility antigen, A alpha chain, allele A*24:02 (Homo sapiens, UniProt P04439) | binding |  |  | IC50 | 2100 nM
C[C@]1(CO)Cc2ncn(-c3ccc(C#N)c(Cl)c3)c2C(=O)O1 |  |  | human, plasma | oral, 10 mg single dose, breakfast, high-fat, high-calorie, after | AUC(0-tz) adjusted geometric mean | 2.38 µM·h
C[C@H]1CN(c2n[nH]c3nc(N[C@H]4CC[C@H](NS(=O)(=O)CCC(F)(F)F)CC4)ncc23)CCO1 | Leishmania donovani | cell growth | promastigotes, LdBOB CRK6 overexpressing |  | EC50 | 10.1 ± 0.1 nM
O=C(Nc1ccccc1)C1CCN(C(=O)Oc2cccnc2)CC1 |  |  | healthy women | oral, 100 mg, 9 days | adverse event Asthenia | 7.7%
COc1cc2c(Oc3ccc4[nH]c(C)cc4c3F)ccnc2cc1OCC1(N)CC1 |  |  | paediatric recurrent refractory sarcoma | concentration not given, whole group | grade 1 or 2 Anorexia | 14.7%
CCC(C)n1ncn(-c2ccc(N3CCN(c4ccc(OCC5COC(Cn6cncn6)(c6ccc(Cl)cc6Cl)O5)cc4)CC3)cc2)c1=O (stereo not shown) | coxsackievirus A16 | viral replication, inhibitor |  | 72 h | EC50 | 60 ± 10 nM
CNCC(=O)N[C@@H](CO)C(=O)N[C@H]1[C@H](O)[C@@H](O)[C@H](n2ccc(N)nc2=O)O[C@@H]1C(N)=O | tobacco mosaic virus | protective activity | in vivo plant |  | EC50 | 271 ± 2.8 µg/mL

A few entries again:
Compound | tested on | assay | test system | conditions | measurement | value
Nc1ccn(C[C@@H](CO)OCP(=O)(O)O)c(=O)n1 | herpes simplex virus 2 | viral cytopathic effect | HEL, G |  | EC50 | 1000 nM
